Measurements pooled from the literature.
“And” joins repeats or separate records; there may be more than shown. Converted amounts (≈) assume the structure as drawn.

With `COc1cc2cc(C(=O)Nc3ccccc3)c(N)nc2cc1OC` the inhibition was 20% (Plasmodium yoelii; oxygen consumption; 17XL; 2 µM).
`O=[N+]([O-])c1cc2cc3ccc4oc([N+](=O)[O-])cc4c3cc2o1` has an MIC90 of 0.125 µg/mL (≈ 0.419 µM) (Mycolicibacterium aurum; REMA; ATCC 23366).
Under “hatchlings per female”, `C[C@@H]1O[C@@H](O[C@H]2C[C@@H](O)[C@]3(CO)[C@H]4[C@H](O)C[C@]5(C)[C@@H](C6=CC(=O)OC6)CC[C@]5(O)[C@@H]4CC[C@]3(O)C2)[C@H](O)[C@H](O)[C@H]1O` is recorded as 134 (Oncopeltus fasciatus; diet, concentration not given).
For `CS(=O)(=O)CCCn1c(Cn2c(=O)n(CC(F)(F)F)c3ccncc32)cc2cc(Cl)ccc21`, “LS mean viral load change” read -4.42 log10 copies/mL (respiratory syncytial virus; RT-qPCR; hospitalized infants 1-24 months, nasal swab; oral, 1-9 mg/kg daily, day 14, all doses combined; reference: baseline).
For `Cc1cc(-c2cn[nH]c2-c2cccc(OCc3cccc(C#N)c3)c2)cc(C)n1`, antibacterial activity read “inactive” (aerobic Gram-positive pathogens; concentration not given).
With `Cc1ncc([N+](=O)[O-])n1CCO` the MIC50 was 0.5 µg/mL (≈ 2.92 µM) (Prevotella spp.; bacterial growth).
`CCOC(=O)C1(Cc2ccccc2)CN(c2ccccc2)Cc2nnn(Cc3cccc(F)c3)c21` (stereo not shown) has an EC50 of > 100 µM (human adenovirus 2; viral replication; HEL).
With `CCCCCCCSc1ccc(CC(C)NCC(O)c2cccc(Cl)c2)cc1` (stereo not shown) the IC50 was > 20 µM (Plasmodium yoelii; 17XL; 384-well).
For `COC(=O)c1ccc2c(ccc3oc([N+](=O)[O-])cc32)c1`, the MIC90 was > 32 µg/mL (Klebsiella aerogenes; REMA).
With `COC(=O)N[C@H](C(=O)N1CCC[C@H]1c1ncc(-c2ccc(-c3ccc(-c4cnc([C@@H]5CCCN5C(=O)[C@@H](NC(=O)OC)C(C)C)[nH]4)cc3)cc2)[nH]1)C(C)C` the combination index was 0.6 and 1.04 and 0.81 (hepatitis C virus; HCV replicon; 90% effect level, together with: IFN-α, ratio 1:2.5).
`COc1ccc(CCn2nnc3c2CCN(c2ccc(C(F)(F)F)cc2)C3)cc1` has an EC50 of > 100 µM (human adenovirus 2; viral replication; HEL).
For `CC1=C(C)/C(=C/c2cc(Cc3ccc(OC(F)(F)F)cc3)c(C)[nH]2)N=C1c1ccc[nH]1.Cl`, the ED90 was 4.21 mg/kg/day (Plasmodium yoelii; parasitaemia; mouse; 4-day treatment, parasitaemia day 5).
The MIC of `CC(C)CC1NC(=O)C(C(=O)NC(C(=O)NC2C(=O)N3C2SC(C)(C)C3C(=O)O)c2ccccc2)=C1O` (stereo not shown) is reported as 25 µg/mL (≈ 47.1 µM) (Escherichia coli; broth microdilution; Keio mutant JW0587-1; 18 h, enterobactin-related gene).
The MIC90 of `Cn1c(=O)ccc2ccc(F)c(CCNC[C@H]3CN(c4cnc5c(n4)NC(=O)CO5)C(=O)O3)c21` is reported as 0.25 µg/mL (≈ 0.534 µM) (Klebsiella aerogenes).
For `COC1=CC(c2ccc[nH]2)=N/C1=C\c1[nH]c(C)cc1-c1ccc(Cl)cc1.Cl`, the parasitaemia reduction was 100% (Plasmodium yoelii; CF1 mice; oral, 25 mg/kg daily for 4 days, day 5; reference: vehicle).
`C=CC1(C)CC(OC(=O)CSc2nc3ccccc3s2)C2(C)C(C)CCC3(CCC(=O)C32)C(C)C1O` (stereo not shown) has an IC50 of 15.8 µM (Tetrahymena pyriformis and Klebsiella pneumoniae; virulence in co-culture).
With `CC[C@H](C)[C@H](NC(=O)[C@H](C)NC(=O)[C@H](CCCCN)NC(=O)[C@H](CC(C)C)NC(=O)[C@H](C)NC(=O)[C@@H](NC(=O)[C@H](Cc1c[nH]cn1)NC(=O)[C@H](CC(C)C)NC(=O)[C@@H](NC(=O)[C@@H](NC(=O)[C@H](CCCCN)NC(=O)[C@H](C)NC(=O)[C@H](C)NC(=O)[C@H](CO)NC(=O)[C@H](CCCCN)NC(=O)[C@H](Cc1ccccc1)NC(=O)[C@@H](NC(=O)[C@H](CCCCN)NC(=O)[C@H](CC(C)C)NC(=O)[C@H](Cc1ccccc1)NC(=O)[C@H](CO)NC(=O)[C@H](CCCCN)NC(=O)[C@H](Cc1c[nH]c2ccccc12)NC(=O)[C@H](CCCCN)NC(C)=O)[C@@H](C)O)[C@@H](C)O)C(C)C)[C@@H](C)O)C(=O)N[C@@H](CO)C(=O)N[C@@H](CO)C(N)=O` the MIC50 was 8 µg/mL (≈ 2.73 µM) (Klebsiella pneumoniae; ATCC 700603 (ESBL)).
For `CNC(C)C1CCC(N)C(OC2C(N)CC(N)C(OC3OCC(C)(O)C(NC)C3O)C2O)O1` (stereo not shown), the survival was 11% and 16.1% and 8.5% and 12.7% and 10.2% (Acinetobacter baumannii; 19606, biofilm; 50 µg/mL, together with: HNP1 8 µM).
The MIC90 of `Nc1c([N+](=O)[O-])oc2ccc3ccccc3c12` is reported as > 32 µg/mL (Mycolicibacterium aurum; REMA; ATCC 23366).
`Nc1c(C(=O)Nc2ccc(C3=NCCN3)cc2)cccc1C(=O)Nc1ccc(C2=NCCN2)cc1` has an IC50 of 11.4 µM (Tetrahymena pyriformis and Klebsiella pneumoniae; virulence in co-culture).
The MBC of `CC[C@H](C)[C@H](NC(=O)[C@H](Cc1ccccc1)NC(=O)[C@@H](NC(=O)[C@H](CO)NC(=O)[C@@H](N)CCCNC(=N)N)[C@@H](C)CC)C(=O)N[C@@H](CCCCN)C(=O)N[C@@H](Cc1ccc(O)cc1)C(=O)N[C@@H](CCCCN)C(=O)N[C@@H](CO)C(=O)N[C@@H](CCCCN)C(=O)N1CCC[C@H]1C(=O)N[C@@H](Cc1ccccc1)C(=O)N[C@@H](CS)C(=O)N[C@@H](CCC(=O)O)C(=O)N[C@@H](CCCCN)C(=O)N[C@@H](CC(C)C)C(=O)N[C@@H](CC(C)C)C(=O)N[C@@H](CO)C(=O)N[C@@H](Cc1c[nH]c2ccccc12)C(=O)N[C@H](C(=O)N[C@@H](CCCCN)C(=O)N[C@@H](CO)C(=O)O)C(C)C` is reported as 8 µg/mL (≈ 2.98 µM) (Staphylococcus haemolyticus).
`CS(=O)(=O)c1cccc(-c2nnc(NC(=O)c3ccc(-c4ccccc4)cc3)o2)c1` gave an IC50 of 0.8 µM (Tetrahymena pyriformis and Klebsiella pneumoniae; virulence in co-culture).
`COc1cccc(C(=O)NN(C(=O)c2cc(C)cc(C)c2)C(C)(C)C)c1C` — result for lifespan: “no effect” (Anopheles gambiae; G3, lab susceptible; tarsal contact, dose not given, no blood meal, without RME; reference: control).
For `O=[N+]([O-])c1cnc2ccc(F)cc2c1O`, the IC50 was 0.58 µM (Tetrahymena pyriformis and Klebsiella pneumoniae; virulence in co-culture).
`N=C(N)c1ccc(OCc2ccc(Br)cc2COc2ccc(C(=N)N)cc2)cc1` gave an FICI of ≤ 0.047 (Escherichia coli; checkerboard; mcr-1 polymyxin-resistant; unit not given, together with: rifampicin; lower = stronger synergy).

Some of these lines once more:
For `CC1=C(C)/C(=C/c2cc(Cc3ccc(OC(F)(F)F)cc3)c(C)[nH]2)N=C1c1ccc[nH]1.Cl`, the ED90 was 4.21 mg/kg/day (Plasmodium yoelii; parasitaemia; mouse; 4-day treatment, parasitaemia day 5).
The MIC of `CC(C)CC1NC(=O)C(C(=O)NC(C(=O)NC2C(=O)N3C2SC(C)(C)C3C(=O)O)c2ccccc2)=C1O` (stereo not shown) is reported as 25 µg/mL (≈ 47.1 µM) (Escherichia coli; broth microdilution; Keio mutant JW0587-1; 18 h, enterobactin-related gene).
